Measurements gathered from unrelated publications.
Each line is one published result; not all experiments were run side by side. Values joined by “and” are separate records of one study, mostly repeats; a detail may differ. ± gives the spread as reported.
HLA class I histocompatibility antigen, A alpha chain allele A*02:01: HLA class I histocompatibility antigen, A alpha chain, allele A*02:01 (Homo sapiens, UniProt P04439)
Fibroin-modulator-binding protein-1: Fibroin-modulator-binding protein-1 99-193 (Bombyx mori, UniProt Q5FBS0)
UniProt Q64663, sequence (whole entry, unmodified, looked up): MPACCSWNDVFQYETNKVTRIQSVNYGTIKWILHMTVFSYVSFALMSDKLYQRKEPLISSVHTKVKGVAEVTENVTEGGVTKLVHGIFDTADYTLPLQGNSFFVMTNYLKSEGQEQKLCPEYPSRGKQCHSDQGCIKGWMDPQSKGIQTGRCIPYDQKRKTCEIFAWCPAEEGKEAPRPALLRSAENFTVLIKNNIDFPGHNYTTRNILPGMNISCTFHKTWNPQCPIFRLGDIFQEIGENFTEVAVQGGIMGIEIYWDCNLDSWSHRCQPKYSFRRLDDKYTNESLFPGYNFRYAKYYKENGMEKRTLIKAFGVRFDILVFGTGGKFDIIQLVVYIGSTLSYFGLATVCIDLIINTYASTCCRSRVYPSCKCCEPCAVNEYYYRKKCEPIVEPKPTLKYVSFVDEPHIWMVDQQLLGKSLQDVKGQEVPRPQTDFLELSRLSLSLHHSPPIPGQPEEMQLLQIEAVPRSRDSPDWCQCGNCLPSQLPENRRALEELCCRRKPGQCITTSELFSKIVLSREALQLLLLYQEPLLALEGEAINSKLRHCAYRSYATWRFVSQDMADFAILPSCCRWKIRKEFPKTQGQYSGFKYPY

QGRWDHETIV  binding intensity (human SCRIB PDZ3-4 tandem (MBP fusion); automated holdup; peptide, purified PDZ protein; concentration not given, unit not given; baseline: biotin control resin, higher = stronger binding): 0.409
human serum albumin  co-IP enrichment (co-immunoprecipitation; human RBC membrane; unit not given, with: Band 3 peptide 1-56 bait; baseline: negative control): 1.08
Peginesatide  mRNA level (UT7/EPO; microarray, refers to: RAB11FIP1 mRNA (probe set 225177_at); 20 nM, 90 min; baseline: vehicle): 3.4 fold
NPDALPETLV  binding intensity (human SCRIB PDZ3-4 tandem (MBP fusion); automated holdup; peptide, crude extract; concentration not given, corrected by standard peak, unit not given; baseline: biotin control resin, higher = stronger binding): 0.196
ACDDQNPWRAYLDLLFPTDTLLLDLLW  mean fluorescence intensity (ex vivo fluorescence imaging; peptide, BALB/c mice, 4T1 tumour-bearing, liver; intravenous, 5 nmol, 24 h post-injection; higher = more uptake): 303 ± 64.4 a.u.
Polymyxin B  membrane depolarisation (Staphylococcus aureus; DiSC3(5) fluorescence; concentration not given, 42 min; higher = more depolarisation): 780 a.u. and 552 a.u. and 608 a.u.
TLLQWVTQI  reporter activation (Jurkat T cells expressing 1G4 TCR; NFAT-eGFP reporter, flow cytometry; peptide; concentration not given, HLA-A*02:01 NY-ESO system): 78.8%
human retinal dehydrogenase 1  co-IP enrichment (co-immunoprecipitation; human RBC membrane; DMTMM crosslinker, unit not given, with: Band 3 peptide 1-56 bait; baseline: negative control): 0
CTCATACTCT  log2 fold change (Salmonella enterica Typhimurium; RNA-seq, refers to: fabF mRNA; peptide, SL1344; 5 µM, 15 min; baseline: water control): -1.88
LVHYTHCGSLGV  EBV DNA copy number (Epstein-Barr virus; BamHI-W qPCR; peptide, B-NDG humanized mouse, EBV-infected, peripheral blood; 20 mg/kg, day 14): 0 copies
GSGAGSETKM  normalised SPR binding response (human MAGI1-3/6 PDZ construct (MBP fusion); surface plasmon resonance; peptide; concentration not given; higher = stronger binding): 0 normalised RU
MPFGSLLDYV  binding score (HLA class I histocompatibility antigen, A alpha chain allele A*02:01; conformational ELISA; peptide; concentration not given; baseline: positive control peptide, direction not given): 3.4%
AAAEGEMK  fractional oxidation (MsrA and MsrB; LC-MS/MS; peptide, acetylated Escherichia coli proteome; 20 min, pH 7.5, 37 °C, with: MsrA 0.54 µM, MsrB 2.02 µM): 0.0675
maraviroc  HIV-1 gag decrease (HIV-1 ADA; viral replication, qPCR; HIV-infected mice, brain; ip, 120 mg/kg twice daily, 3 weeks post-infection, normalized to CD45+ cells; baseline: untreated HIV-infected mice): 336 fold
GLLEWVSQV  reporter activation (Jurkat T cells expressing 1G4 TCR; NFAT-eGFP reporter, flow cytometry; peptide; concentration not given, HLA-A*02:01 NY-ESO system): 0.15%
MTVCNASQRQAHAQATAVSL  selectivity ratio (PC-3 prostate cancer; phage binding output/input; peptide; baseline: control phage): 0.51 ± 0.13
GLLEWISLV  reporter activation (Jurkat T cells expressing 1G4 TCR; NFAT-eGFP reporter, flow cytometry; peptide; concentration not given, HLA-A*02:01 NY-ESO system): 0.17%
CAAGCAAGCAAG (dsDNA)  Kd (Fibroin-modulator-binding protein-1; ITC; double-stranded DNA, one strand shown): 5.51 ± 0.943 µM
BzATP  normalized current (P2X purinoceptor 7 (P2rx7, Rattus norvegicus, UniProt Q64663); ion current, agonist, two-electrode voltage clamp; Xenopus laevis oocytes; 1.23 µM; baseline: highest concentration response): 0.47 and 0.45 and 0.58
SLLQWVTQV  reporter activation (Jurkat T cells expressing 1G4 TCR; NFAT-eGFP reporter, fluorescence microscopy; peptide; concentration not given, HLA-A*02:01 NY-ESO system): 28.1%
PKRSFIESNV  binding intensity (human MAGI1-2/6 PDZ construct (MBP fusion); automated holdup; peptide, crude extract; concentration not given, uncorrected, unit not given; baseline: biotin control resin, higher = stronger binding): 0.451
TCP-1 alpha  co-IP enrichment (co-immunoprecipitation; human RBC membrane; DSSO crosslinker, unit not given, with: Band 3 peptide 1-56 bait; baseline: negative control): 17.5
SEKHFRETEV  binding intensity (human MAGI1-3/6 PDZ construct (MBP fusion); automated holdup; peptide, crude extract; concentration not given, corrected by standard peak, unit not given; baseline: biotin control resin, higher = stronger binding): 0.29
human clusterin  co-IP enrichment (co-immunoprecipitation; human RBC cytosol; no crosslinker, unit not given, with: Band 3 peptide 1-56 bait; baseline: negative control): 0
SLMQWVTQV  reporter activation (Jurkat T cells expressing 1G4 TCR; NFAT-eGFP reporter, fluorescence microscopy; peptide; concentration not given, HLA-A*02:01 NY-ESO system): 28.5%
11-deoxycorticosterone  Kd (CYP11B2 (human); substrate binding, stopped-flow global kinetic fitting; purified enzyme; model, 4-state, linear IF, with: no adrenodoxin): 3.74 µM
QSARYRDTEL  binding intensity (human MAGI1-3/6 PDZ construct (MBP fusion); automated holdup; peptide, crude extract; concentration not given, uncorrected, unit not given; baseline: biotin control resin, higher = stronger binding): 0.105
cotadutide  metabolite level (metabolomics, refers to: hepatic tyrosine; ob/ob mice on AMLN diet, NASH model, liver; dose not given): 1.03 ± 0.05 scaled intensity
USP14  co-IP enrichment (co-immunoprecipitation; human RBC membrane; unit not given, with: Band 3 peptide 1-56 bait; baseline: negative control): 0
CCAACCAACCAA (dsDNA)  Kd (Fibroin-modulator-binding protein-1; ITC; double-stranded DNA, one strand shown): 3.82 ± 0.16 µM
milbemycin oxime  OD600 (Saccharomyces cerevisiae; cell growth; Pdr5 deleted, Cdr1 overexpressed; 2^-8.966 µg/mL): 0.983 and 1.01 and 0.949
ILEAAKSIAAATSALVKAASAAQRE  rupture force FWHM upper side (vinculin head domain Vd1; complex rupture, AFM single-molecule force spectroscopy; peptide; traces traces, C-terminal pulling, 800 nm/s): 19.2 pN
human HSC70  co-IP enrichment (co-immunoprecipitation; human RBC membrane; unit not given, with: Band 3 peptide 1-56 bait; baseline: negative control): 0
TLAEWVPRL  reporter activation (Jurkat T cells expressing 1G4 TCR; NFAT-eGFP reporter, fluorescence microscopy; peptide; concentration not given, HLA-A*02:01 NY-ESO system): 0.00208%
human GAPDH  co-IP enrichment (co-immunoprecipitation; human plasma; unit not given, with: Band 3 peptide 1-56 bait; baseline: negative control): 2.67
ACEEQNPWARYLEWLFPTETLLLEL  mean fluorescence intensity (ex vivo fluorescence imaging; peptide, BALB/c mice, 4T1 tumour-bearing, kidney; intravenous, 5 nmol, 2 h post-injection; higher = more uptake): 1350 ± 146 a.u.
CLTSTVQLIM  binding score (HLA class I histocompatibility antigen, A alpha chain allele A*02:01; conformational ELISA; peptide; concentration not given; baseline: positive control peptide, direction not given): 31.6%
ALMQWVTQV  reporter activation (Jurkat T cells expressing 1G4 TCR; NFAT-eGFP reporter, flow cytometry; peptide; concentration not given, HLA-A*02:01 NY-ESO system): 74.2%
Teicoplanin  freeze-thaw stability (human serum; three freeze-thaw cycles): stable
GSGAGSETSV  binding intensity (human MAGI1-2/6 PDZ construct (MBP fusion); automated holdup; peptide, crude extract; concentration not given, corrected by standard peak, unit not given; baseline: biotin control resin, higher = stronger binding): 0.162
RLGQWIAQA  reporter activation (Jurkat T cells expressing 1G4 TCR; NFAT-eGFP reporter, flow cytometry; peptide; concentration not given, HLA-A*02:01 NY-ESO system): 0.56%
CCT6A  co-IP enrichment (co-immunoprecipitation; human RBC cytosol; unit not given, with: Band 3 peptide 1-56 bait; baseline: negative control): 0
epoetin alfa  mRNA level (UT7/EPO; microarray, refers to: CISH mRNA (probe set 223961_s_at); 5 U/mL, 90 min; baseline: vehicle): 12.9 fold
NRVDSKETEC  binding intensity (human SCRIB PDZ3-4 tandem (MBP fusion); automated holdup; peptide, crude extract; concentration not given, corrected by standard peak, unit not given; baseline: biotin control resin, higher = stronger binding): 0.746
colistin  MIC (Enterobacter cloacae; broth microdilution; clinical isolate RKI-No_460/16): ≤ 0.5 µg/mL

For quick reference, copied from above:
MPFGSLLDYV  binding score (HLA class I histocompatibility antigen, A alpha chain allele A*02:01; conformational ELISA; peptide; concentration not given; baseline: positive control peptide, direction not given): 3.4%
AAAEGEMK  fractional oxidation (MsrA and MsrB; LC-MS/MS; peptide, acetylated Escherichia coli proteome; 20 min, pH 7.5, 37 °C, with: MsrA 0.54 µM, MsrB 2.02 µM): 0.0675
maraviroc  HIV-1 gag decrease (HIV-1 ADA; viral replication, qPCR; HIV-infected mice, brain; ip, 120 mg/kg twice daily, 3 weeks post-infection, normalized to CD45+ cells; baseline: untreated HIV-infected mice): 336 fold
GLLEWVSQV  reporter activation (Jurkat T cells expressing 1G4 TCR; NFAT-eGFP reporter, flow cytometry; peptide; concentration not given, HLA-A*02:01 NY-ESO system): 0.15%
MTVCNASQRQAHAQATAVSL  selectivity ratio (PC-3 prostate cancer; phage binding output/input; peptide; baseline: control phage): 0.51 ± 0.13
GLLEWISLV  reporter activation (Jurkat T cells expressing 1G4 TCR; NFAT-eGFP reporter, flow cytometry; peptide; concentration not given, HLA-A*02:01 NY-ESO system): 0.17%
CAAGCAAGCAAG (dsDNA)  Kd (Fibroin-modulator-binding protein-1; ITC; double-stranded DNA, one strand shown): 5.51 ± 0.943 µM
